# Results collected from several papers.
# ± gives the spread as reported.
# NR1H2 ligand-binding domain: Oxysterols receptor LXR-beta, ligand-binding domain (NR1H2, Homo sapiens, UniProt P55055)
# UniProt P55055, sequence (whole entry, looked up): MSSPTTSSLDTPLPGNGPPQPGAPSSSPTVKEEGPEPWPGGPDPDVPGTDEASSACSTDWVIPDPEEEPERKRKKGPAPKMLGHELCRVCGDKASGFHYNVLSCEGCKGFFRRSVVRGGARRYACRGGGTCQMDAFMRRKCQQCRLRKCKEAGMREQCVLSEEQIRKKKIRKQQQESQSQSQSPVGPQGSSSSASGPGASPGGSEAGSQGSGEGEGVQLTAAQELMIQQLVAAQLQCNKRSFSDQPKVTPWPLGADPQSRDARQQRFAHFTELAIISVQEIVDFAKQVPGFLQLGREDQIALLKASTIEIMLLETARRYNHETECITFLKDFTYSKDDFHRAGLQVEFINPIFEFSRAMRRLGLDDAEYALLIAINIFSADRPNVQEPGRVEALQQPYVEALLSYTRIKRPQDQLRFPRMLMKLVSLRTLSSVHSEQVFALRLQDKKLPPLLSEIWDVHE
# FFAR3: Free fatty acid receptor 3 (FFAR3, Homo sapiens, UniProt O14843)
# UniProt O14843, sequence (whole entry, looked up): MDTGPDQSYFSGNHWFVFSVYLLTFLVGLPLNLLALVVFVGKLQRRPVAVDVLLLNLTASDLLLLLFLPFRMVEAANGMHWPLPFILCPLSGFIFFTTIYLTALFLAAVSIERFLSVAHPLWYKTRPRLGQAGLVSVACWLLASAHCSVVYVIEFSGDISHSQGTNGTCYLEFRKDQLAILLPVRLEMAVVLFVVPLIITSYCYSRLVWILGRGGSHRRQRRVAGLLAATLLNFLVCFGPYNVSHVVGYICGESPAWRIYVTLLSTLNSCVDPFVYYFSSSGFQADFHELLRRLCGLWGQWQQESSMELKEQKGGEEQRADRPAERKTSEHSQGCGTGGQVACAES
# CXCR4: C-X-C chemokine receptor type 4 (CXCR4, Homo sapiens, UniProt P61073)
# Thyrotropin-releasing hormone receptor: Thyrotropin-releasing hormone receptor (Mus musculus, UniProt P21761)
# UniProt P21761, sequence (whole entry, looked up): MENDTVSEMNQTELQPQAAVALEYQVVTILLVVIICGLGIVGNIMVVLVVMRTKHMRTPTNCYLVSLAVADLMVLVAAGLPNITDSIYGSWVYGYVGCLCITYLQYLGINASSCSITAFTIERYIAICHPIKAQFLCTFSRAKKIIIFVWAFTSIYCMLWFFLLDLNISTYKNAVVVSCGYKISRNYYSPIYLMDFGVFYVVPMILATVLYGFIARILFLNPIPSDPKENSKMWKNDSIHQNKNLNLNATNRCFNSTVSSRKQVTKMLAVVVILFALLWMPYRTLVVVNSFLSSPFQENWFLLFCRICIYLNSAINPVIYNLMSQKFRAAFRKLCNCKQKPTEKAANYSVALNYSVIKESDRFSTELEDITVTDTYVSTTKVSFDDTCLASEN
# Gonadotropin-releasing hormone receptor: Gonadotropin-releasing hormone receptor (Rattus norvegicus, UniProt P30969)
# UniProt P30969, sequence (whole entry, looked up): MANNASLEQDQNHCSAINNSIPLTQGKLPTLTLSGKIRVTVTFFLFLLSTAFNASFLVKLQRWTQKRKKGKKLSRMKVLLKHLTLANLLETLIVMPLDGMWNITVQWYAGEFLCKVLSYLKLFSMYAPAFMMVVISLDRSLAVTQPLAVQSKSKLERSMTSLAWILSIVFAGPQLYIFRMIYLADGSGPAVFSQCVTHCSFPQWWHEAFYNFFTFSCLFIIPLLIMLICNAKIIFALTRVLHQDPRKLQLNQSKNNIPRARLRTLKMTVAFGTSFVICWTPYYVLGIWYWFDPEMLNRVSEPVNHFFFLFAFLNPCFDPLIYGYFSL
# UniProt P41586, sequence (whole entry, looked up): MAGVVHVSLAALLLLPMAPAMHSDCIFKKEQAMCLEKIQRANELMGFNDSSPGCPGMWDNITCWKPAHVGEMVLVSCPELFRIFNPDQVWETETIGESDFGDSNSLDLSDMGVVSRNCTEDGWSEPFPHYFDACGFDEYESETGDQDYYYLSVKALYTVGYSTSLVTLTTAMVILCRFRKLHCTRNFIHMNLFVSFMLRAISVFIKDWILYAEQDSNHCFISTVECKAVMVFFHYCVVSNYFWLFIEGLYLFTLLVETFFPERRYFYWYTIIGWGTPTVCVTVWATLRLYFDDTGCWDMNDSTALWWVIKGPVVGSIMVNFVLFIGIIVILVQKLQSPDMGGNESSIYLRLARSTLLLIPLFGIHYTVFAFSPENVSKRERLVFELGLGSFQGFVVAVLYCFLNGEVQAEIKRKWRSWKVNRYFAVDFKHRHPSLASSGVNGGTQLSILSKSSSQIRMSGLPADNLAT
# UniProt P50391, sequence (whole entry, looked up): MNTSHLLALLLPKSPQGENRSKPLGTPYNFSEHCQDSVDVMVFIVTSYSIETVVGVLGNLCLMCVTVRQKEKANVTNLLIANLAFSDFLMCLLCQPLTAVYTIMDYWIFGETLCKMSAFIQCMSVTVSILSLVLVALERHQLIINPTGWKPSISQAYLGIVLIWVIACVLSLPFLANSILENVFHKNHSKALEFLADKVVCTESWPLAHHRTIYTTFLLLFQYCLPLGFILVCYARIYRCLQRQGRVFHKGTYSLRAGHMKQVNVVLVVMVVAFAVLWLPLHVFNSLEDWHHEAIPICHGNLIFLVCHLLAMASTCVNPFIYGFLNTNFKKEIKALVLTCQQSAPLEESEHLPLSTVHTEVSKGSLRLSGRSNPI
# UniProt A7T1N0, sequence (whole entry, looked up): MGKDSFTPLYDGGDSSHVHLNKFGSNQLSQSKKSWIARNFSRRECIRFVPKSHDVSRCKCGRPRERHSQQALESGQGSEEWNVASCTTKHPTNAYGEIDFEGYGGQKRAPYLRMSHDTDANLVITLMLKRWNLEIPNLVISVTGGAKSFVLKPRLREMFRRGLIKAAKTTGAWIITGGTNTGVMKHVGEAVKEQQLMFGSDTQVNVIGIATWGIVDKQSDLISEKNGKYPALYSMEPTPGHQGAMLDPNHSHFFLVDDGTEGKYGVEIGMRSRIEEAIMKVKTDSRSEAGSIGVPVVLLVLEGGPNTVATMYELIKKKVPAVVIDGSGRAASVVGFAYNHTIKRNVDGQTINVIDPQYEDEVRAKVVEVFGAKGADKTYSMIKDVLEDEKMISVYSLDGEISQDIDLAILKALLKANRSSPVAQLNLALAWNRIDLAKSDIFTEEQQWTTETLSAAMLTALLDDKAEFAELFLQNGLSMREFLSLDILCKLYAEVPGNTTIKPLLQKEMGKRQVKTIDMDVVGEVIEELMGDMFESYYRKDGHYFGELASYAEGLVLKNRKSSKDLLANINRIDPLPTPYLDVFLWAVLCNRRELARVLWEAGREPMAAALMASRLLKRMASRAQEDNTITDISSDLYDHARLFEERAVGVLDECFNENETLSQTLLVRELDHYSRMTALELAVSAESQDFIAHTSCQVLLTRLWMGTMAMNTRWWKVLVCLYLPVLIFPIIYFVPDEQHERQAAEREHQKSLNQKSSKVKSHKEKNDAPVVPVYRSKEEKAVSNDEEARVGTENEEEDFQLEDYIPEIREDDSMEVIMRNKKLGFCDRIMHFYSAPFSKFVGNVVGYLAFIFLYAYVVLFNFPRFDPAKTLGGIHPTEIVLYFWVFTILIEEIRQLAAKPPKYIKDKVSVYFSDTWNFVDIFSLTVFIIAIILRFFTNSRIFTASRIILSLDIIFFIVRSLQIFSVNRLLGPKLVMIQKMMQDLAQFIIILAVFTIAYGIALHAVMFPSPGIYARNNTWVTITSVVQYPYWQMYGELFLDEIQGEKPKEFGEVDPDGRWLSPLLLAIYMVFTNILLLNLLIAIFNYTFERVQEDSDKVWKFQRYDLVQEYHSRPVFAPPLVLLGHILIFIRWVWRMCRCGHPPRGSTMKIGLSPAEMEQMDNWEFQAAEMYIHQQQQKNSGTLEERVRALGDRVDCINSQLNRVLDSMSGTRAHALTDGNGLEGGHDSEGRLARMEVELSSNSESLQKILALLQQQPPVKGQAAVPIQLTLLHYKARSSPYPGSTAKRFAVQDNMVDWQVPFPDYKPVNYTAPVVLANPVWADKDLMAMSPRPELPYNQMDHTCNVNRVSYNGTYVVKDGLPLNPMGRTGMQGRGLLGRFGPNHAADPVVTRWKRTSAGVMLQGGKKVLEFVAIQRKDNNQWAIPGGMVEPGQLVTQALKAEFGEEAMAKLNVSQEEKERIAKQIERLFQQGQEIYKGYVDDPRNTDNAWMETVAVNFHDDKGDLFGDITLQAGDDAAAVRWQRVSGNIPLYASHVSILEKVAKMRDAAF
# UniProt P41149, sequence (whole entry, looked up): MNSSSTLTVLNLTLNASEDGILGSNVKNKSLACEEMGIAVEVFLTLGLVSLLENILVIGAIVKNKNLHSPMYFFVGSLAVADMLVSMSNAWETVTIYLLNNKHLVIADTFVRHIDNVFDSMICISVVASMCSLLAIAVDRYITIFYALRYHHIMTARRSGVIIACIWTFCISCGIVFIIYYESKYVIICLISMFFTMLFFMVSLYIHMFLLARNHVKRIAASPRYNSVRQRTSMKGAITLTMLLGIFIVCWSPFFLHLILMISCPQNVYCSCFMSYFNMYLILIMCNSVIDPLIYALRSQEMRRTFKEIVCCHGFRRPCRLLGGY
# UniProt O35659, sequence (whole entry, looked up): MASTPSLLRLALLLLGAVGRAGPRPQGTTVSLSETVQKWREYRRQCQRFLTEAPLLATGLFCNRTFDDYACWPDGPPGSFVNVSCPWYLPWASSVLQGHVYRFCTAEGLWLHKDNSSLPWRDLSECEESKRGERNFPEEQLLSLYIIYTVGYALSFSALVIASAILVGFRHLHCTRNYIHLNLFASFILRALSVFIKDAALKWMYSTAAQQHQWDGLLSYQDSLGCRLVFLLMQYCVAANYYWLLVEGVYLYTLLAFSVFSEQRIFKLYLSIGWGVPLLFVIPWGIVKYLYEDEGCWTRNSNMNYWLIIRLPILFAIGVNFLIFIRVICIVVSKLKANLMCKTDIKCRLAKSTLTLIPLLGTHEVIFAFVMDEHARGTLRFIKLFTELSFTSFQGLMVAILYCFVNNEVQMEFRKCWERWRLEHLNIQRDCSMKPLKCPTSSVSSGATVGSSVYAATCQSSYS
SMILES,target,assay,system,conditions,EC50
N=C(N)NCCC[C@H](NC(=O)[C@H](Cc1ccccc1)NC(=O)[C@@H](N)CO)C(=O)N[C@@H](CC(N)=O)C(=O)NCC(N)=O,"NPSR1 (Homo sapiens, UniProt Q6W5P4)","cAMP, agonist, TR-FRET",,,> 10000 nM
CN(C(=O)C(c1ccccc1)c1ccccc1)c1ccc(C(O)(C(F)(F)F)C(F)(F)F)cc1,NR1H2 ligand-binding domain,agonist,,concentration not given,> 10000 nM
O=C(NC[C@H](Cc1ccc(F)cc1)N1CCC(O)(C(F)(F)F)CC1)C1(c2ccc(Cl)cc2)CCCC1,"TRPA1 (Homo sapiens, UniProt O75762)","calcium signal, agonist",,,2200 nM
CN(C(=O)c1cccc(F)c1)c1ccc(C(O)(C(F)(F)F)C(F)(F)F)cc1,NR1H2 ligand-binding domain,agonist,,concentration not given,1080 ± 20 nM
C/C=C\C(=O)O,FFAR3,"cAMP, agonist, TR-FRET",,,479000 nM
CCCC[C@H](NC(=O)[C@H](CO)NC(=O)[C@H](CC(N)=O)NC(=O)[C@H](CC(C)C)NC(=O)[C@H](Cc1c[nH]cn1)NC(=O)[C@H](CCCCN)NC(=O)CNC(=O)[C@H](CC(C)C)NC(=O)[C@H](CC(N)=O)NC(=O)[C@H](Cc1c[nH]cn1)NC(=O)[C@H](CCCC)NC(=O)[C@H](CC(C)C)NC(=O)[C@H](CCC(N)=O)NC(=O)[C@@H](NC(=O)[C@H](CCC(=O)O)NC(=O)[C@H](CO)NC(=O)[C@@H](NC(=O)[C@@H](N)CO)C(C)C)[C@@H](C)CC)C(=O)N[C@@H](CCC(=O)O)C(=O)N[C@@H](CCCNC(=N)N)C(=O)N[C@H](C(=O)N[C@@H](CCC(=O)O)C(=O)N[C@@H](Cc1c[nH]c2ccccc12)C(=O)N[C@@H](CC(C)C)C(=O)N[C@@H](CCCNC(=N)N)C(=O)N[C@@H](CCCCN)C(=O)N[C@@H](CCCCN)C(=O)N[C@@H](CC(C)C)C(=O)N[C@@H](CCC(N)=O)C(=O)N[C@@H](CC(=O)O)C(=O)N[C@H](C(=O)N[C@@H](Cc1c[nH]cn1)C(=O)N[C@@H](CC(N)=O)C(=O)N[C@@H](Cc1ccccc1)C(=O)N[C@H](C(=O)N[C@@H](C)C(=O)N[C@@H](CC(C)C)C(=O)O)C(C)C)C(C)C)C(C)C,"PTH1R (Homo sapiens, UniProt Q03431)","cAMP, agonist",,,0.209 nM
COc1ccccc1C1=Nn2c(nnc2-c2ccccc2OC)SC1,CXCR4,"β-arrestin recruitment, agonist",,,> 80000 nM
CC(C)C[C@H](NC(=O)[C@H](CCCNC(=N)N)NC(=O)[C@H](Cc1ccc(O)cc1)NC(=O)CCCCCCC(=O)N[C@@H](Cc1ccc(O)cc1)C(=O)N[C@@H](CCCNC(=N)N)C(=O)N[C@@H](CC(C)C)C(=O)NN(CCCNC(=N)N)C(=O)N[C@@H](Cc1ccc(O)cc1)C(N)=O)C(=O)NN(CCCNC(=N)N)C(=O)N[C@@H](Cc1ccc(O)cc1)C(N)=O,"NPY4R (Homo sapiens, UniProt P50391)","calcium signal, agonist",,,542 nM
NC(=O)[C@@H]1CCCN1C(=O)[C@H](Cc1cn(Cc2ccccc2)cn1)NC(=O)c1cnccn1,Thyrotropin-releasing hormone receptor,"calcium signal, agonist, fluorescence",,,19100 nM
CSCC(=O)O,FFAR3,agonist,,,617000 nM
CC(C)C[C@H](NC(=O)[C@@H](Cc1c[nH]c2ccccc12)NC(=O)[C@H](Cc1c[nH]cn1)NC(=O)[C@H](CO)NC(=O)[C@H](Cc1c[nH]c2ccccc12)NC(=O)[C@H](Cc1c[nH]cn1)NC(=O)[C@@H]1CCC(=O)N1)C(=O)N[C@@H](CCCNC(=N)N)C(=O)N1CCC[C@H]1C(=O)NCC(N)=O,Gonadotropin-releasing hormone receptor,"inositol phosphate accumulation, agonist",WPE-1-NB26-3 expressing Gonadotropin-releasing hormone receptor,"60 min, 37 °C, added: 10 mM LiCl",0.4 ± 0.1 nM
Nc1ncnc2c1ncn2C1OC(COP(=O)(O)OP(=O)(O)OCC2OC(O)C(O)C2O)C(O)C1O (stereo not drawn),"TRPM2 (Nematostella vectensis, UniProt A7T1N0)","channel activation, activator, inside-out patch clamp",Xenopus oocytes,added: 125 µM Ca2+ and 2.5 µM PIP2,1500 ± 100 nM
CC[C@H](C)[C@H](NC(=O)CNC(=O)[C@H](CC(=O)O)NC(=O)[C@H](CO)NC(=O)C=Cc1c[nH]cn1)C(=O)N[C@@H](Cc1ccccc1)C(=O)N[C@H](C(=O)N[C@@H](CC(=O)O)C(=O)N[C@@H](CO)C(=O)N[C@@H](Cc1ccc(O)cc1)C(=O)N[C@@H](CO)C(=O)N[C@@H](CCCNC(=N)N)C(=O)N[C@@H](Cc1ccc(O)cc1)C(=O)N[C@@H](CCCNC(=N)N)C(=O)N[C@@H](CCCCN)C(=O)N[C@@H](CCC(N)=O)C(=O)N[C@@H](CCSC)C(=O)N[C@@H](C)C(=O)N[C@H](C(=O)N[C@@H](CCCCN)C(=O)N[C@@H](CCCCN)C(=O)N[C@@H](C)C(=O)N[C@@H](CC(C)C)C(=O)N[C@@H](C)C(=O)N[C@@H](C)C(=O)N[C@H](C(=O)N[C@@H](CC(C)C)C(=O)NCC(=O)N[C@@H](CCCCN)C(=O)N[C@@H](CCCNC(=N)N)C(=O)N[C@@H](Cc1ccc(O)cc1)C(=O)N[C@@H](CCCCN)C(=O)N[C@@H](CCC(N)=O)C(=O)N[C@@H](CCCNC(=N)N)C(=O)N[C@H](C(=O)N[C@@H](CCCCN)C(=O)N[C@@H](CC(N)=O)C(=O)N[C@@H](CCCCN)C(N)=O)C(C)C)C(C)C)C(C)C)[C@@H](C)O,"ADCYAP1R1 (Homo sapiens, UniProt P41586)","cAMP, agonist, radiometric",,,2.46 nM
N=C(N)NCCC[C@@H](NC(=O)[C@H](Cc1c[nH]cn1)NC(=O)[C@H](CO)NC(=O)[C@H](Cc1c[nH]c2ccccc12)NC(=O)[C@H](Cc1c[nH]cn1)NC(=O)[C@@H]1CCC(=O)N1)C(=O)N[C@@H](Cc1c[nH]c2ccccc12)C(=O)N[C@@H](Cc1ccc(O)cc1)C(=O)N1CCC[C@H]1C(=O)NCC(N)=O,Gonadotropin-releasing hormone receptor,"inositol phosphate accumulation, agonist",HEK293 expressing Gonadotropin-releasing hormone receptor,"60 min, 37 °C, added: 10 mM LiCl",1.6 ± 0.2 nM
Cn1cnc(C[C@H](NC(=O)c2cnccn2)C(=O)N2CCC[C@H]2C(N)=O)c1,Thyrotropin-releasing hormone receptor,"calcium signal, agonist, fluorescence",,,414 nM
CC[C@H](C)[C@H](NC(=O)[C@H](CC(N)=O)NC(=O)[C@H](CC(N)=O)NC(=O)[C@H](CCCNC(=N)N)NC(=O)[C@H](CC(N)=O)NC(=O)[C@H](CCCNC(=N)N)NC(=O)[C@H](CCCCN)NC(=O)[C@@H](NC(=O)[C@H](CC(N)=O)NC(=O)[C@H](CCSC)NC(=O)[C@H](CC(C)C)NC(=O)[C@H](Cc1c[nH]c2ccccc12)NC(=O)[C@H](CCC(N)=O)NC(=O)[C@@H](NC(=O)[C@H](Cc1ccccc1)NC(=O)[C@H](CC(=O)O)NC(=O)[C@H](CCC(N)=O)NC(=O)[C@H](C)NC(=O)[C@H](CCCNC(=N)N)NC(=O)[C@H](CCCNC(=N)N)NC(=O)[C@H](CO)NC(=O)[C@H](CC(=O)O)NC(=O)[C@H](CC(C)C)NC(=O)[C@H](Cc1ccc(O)cc1)NC(=O)[C@H](CCCCN)NC(=O)[C@H](CO)NC(=O)[C@H](Cc1ccc(O)cc1)NC(=O)[C@H](CC(=O)O)NC(=O)[C@H](CO)NC(=O)[C@@H](NC(=O)[C@H](Cc1ccccc1)NC(=O)[C@@H](NC(=O)CNC(=O)[C@H](CCC(=O)O)NC(=O)[C@H](CO)NC(=O)[C@@H](N)Cc1c[nH]cn1)[C@@H](C)O)[C@@H](C)O)C(C)C)[C@@H](C)O)C(=O)N[C@@H](C)C(=O)O,"Glucagon-like peptide 1 receptor (Mus musculus, UniProt O35659)","cAMP, agonist, TR-FRET",,,3.9 nM
C#CC[C@H](NC(=O)[C@H](Cc1ccccc1)NC(=O)[C@H](C)NC(=O)[C@H](CC(N)=O)NC(=O)[C@H](Cc1c[nH]c2ccccc12)NC(=O)[C@H](CCCNC(=N)N)NC(=O)[C@@H](Cc1ccccc1)NC(=O)[C@H](Cc1c[nH]cn1)NC(=O)[C@H](CN=[N+]=[N-])NC(=O)[C@@H](N)Cc1ccc(O)cc1)C(=O)N[C@@H](Cc1ccc(O)cc1)C(N)=O,"Melanocortin receptor 5 (Mus musculus, UniProt P41149)",agonist,,,20 ± 3.8 nM
CCCCc1ccc(C2=Nn3c(nnc3-c3ccccc3OC)SC2)cc1,CXCR4,"β-arrestin recruitment, agonist",,,14100 nM

# Excerpt of the above:
SMILES,target,assay,system,conditions,EC50
CC[C@H](C)[C@H](NC(=O)CNC(=O)[C@H](CC(=O)O)NC(=O)[C@H](CO)NC(=O)C=Cc1c[nH]cn1)C(=O)N[C@@H](Cc1ccccc1)C(=O)N[C@H](C(=O)N[C@@H](CC(=O)O)C(=O)N[C@@H](CO)C(=O)N[C@@H](Cc1ccc(O)cc1)C(=O)N[C@@H](CO)C(=O)N[C@@H](CCCNC(=N)N)C(=O)N[C@@H](Cc1ccc(O)cc1)C(=O)N[C@@H](CCCNC(=N)N)C(=O)N[C@@H](CCCCN)C(=O)N[C@@H](CCC(N)=O)C(=O)N[C@@H](CCSC)C(=O)N[C@@H](C)C(=O)N[C@H](C(=O)N[C@@H](CCCCN)C(=O)N[C@@H](CCCCN)C(=O)N[C@@H](C)C(=O)N[C@@H](CC(C)C)C(=O)N[C@@H](C)C(=O)N[C@@H](C)C(=O)N[C@H](C(=O)N[C@@H](CC(C)C)C(=O)NCC(=O)N[C@@H](CCCCN)C(=O)N[C@@H](CCCNC(=N)N)C(=O)N[C@@H](Cc1ccc(O)cc1)C(=O)N[C@@H](CCCCN)C(=O)N[C@@H](CCC(N)=O)C(=O)N[C@@H](CCCNC(=N)N)C(=O)N[C@H](C(=O)N[C@@H](CCCCN)C(=O)N[C@@H](CC(N)=O)C(=O)N[C@@H](CCCCN)C(N)=O)C(C)C)C(C)C)C(C)C)[C@@H](C)O,"ADCYAP1R1 (Homo sapiens, UniProt P41586)","cAMP, agonist, radiometric",,,2.46 nM
N=C(N)NCCC[C@@H](NC(=O)[C@H](Cc1c[nH]cn1)NC(=O)[C@H](CO)NC(=O)[C@H](Cc1c[nH]c2ccccc12)NC(=O)[C@H](Cc1c[nH]cn1)NC(=O)[C@@H]1CCC(=O)N1)C(=O)N[C@@H](Cc1c[nH]c2ccccc12)C(=O)N[C@@H](Cc1ccc(O)cc1)C(=O)N1CCC[C@H]1C(=O)NCC(N)=O,Gonadotropin-releasing hormone receptor,"inositol phosphate accumulation, agonist",HEK293 expressing Gonadotropin-releasing hormone receptor,"60 min, 37 °C, added: 10 mM LiCl",1.6 ± 0.2 nM
